Experimental data of several laboratories.
A part holds a random share of what one study measured. Positions count from the first letter of the parent shown.

Study 1 — technique: RNAcompete; molecule type: RNA; medium: in vitro; concentration: 20 nM; notes: 7-mer, probes averaged, single round; reference: mean of 7-mers; reading: higher = stronger binding; measurement: 7-mer Z-score
Target: PABPC1L2, full length, GST fusion (mouse, UniProt A0ABA7IW68)
Construct (chain): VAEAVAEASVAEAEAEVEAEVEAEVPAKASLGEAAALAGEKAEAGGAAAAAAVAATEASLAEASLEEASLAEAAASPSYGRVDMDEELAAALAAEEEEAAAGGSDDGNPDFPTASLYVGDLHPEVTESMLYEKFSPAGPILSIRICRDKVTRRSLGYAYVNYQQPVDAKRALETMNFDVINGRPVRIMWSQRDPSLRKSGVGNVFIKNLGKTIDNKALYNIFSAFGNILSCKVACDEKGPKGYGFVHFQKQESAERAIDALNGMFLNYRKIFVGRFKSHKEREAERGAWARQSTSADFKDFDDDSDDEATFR
UAAAAAC: 11.2
CGGACAU: 0.0261
GGUCGCA: -0.139
UCUCGUU: -0.438
GCAUCGU: -0.166
GCAGAGC: -0.0736
CUGCCAC: -0.168
AUGUAUA: -0.0228
UUUUCUA: -0.284
GGGCCCA: -0.0391
GUCCAGU: -0.318
GAAUGCA: -0.0718
GGUGGCC: -0.0446
UCCCCCG: -0.519
UUCUAUC: -0.344
GGUGCUG: 0.202
UGAAGUA: -0.155
GAGUGUU: -0.416
GUGCUCA: -0.233
CUAACAU: -0.26
AAAGCAC: 0.782
UAAGCCC: -0.246
ACUGCAG: 0.0334

Study 2 — target: UBE2I UBC core domain (UniProt P63279); technique: yeast two-hybrid; medium: yeast; notes: mostly zero background; reference: not given; reading: higher = stronger interaction; measurement: lacZ reporter activity
B1: BFAR RING domain (UniProt Q9NZS9); chain GPQISVSEFSCHCCYDILVNPTTLNCGHSFCRHCLALWWASSKKTECPECREKWEGFPKVS
B2: RNF103 RING domain (UniProt O00237); chain WPADMLHCTECVVCLENFENGCLLMGLPCGHVFHQNCIVMWLAGGRHCCPVCRWPSYKKKQPY
B3: MKRN3 RING domain (UniProt Q13064); chain FAVQRGMDKVCGICMEVVYEKANPNDRRFGILSNCNHSFCIRCIRRWRSARQFENRIVKSCPQCRVTSELVIPSE
B4: MARCHF1 RING domain (UniProt Q8TCQ1); chain TAPRSQSRLSVCPSTQDICRICHCEGDEESPLITPCRCTGTLRFVHQSCLHQWIKSSDTRCCELCKYDFIMETKLKPLRKWE
B5: HLTF RING domain (UniProt Q14527); chain LILSSGSDEECAICLDSLTVPVITHCAHVFCKPCICQVIQNEQPHAKCPLCRNDIHEDNLLE
B6: RNF186 RING domain (UniProt Q9NXI6); chain HSGSTECDLECLVCREPYSCPRLPKLLACQHAFCAICLKLLLCVQDNTWSITCPLCRKVTAVPGGLI
B7: RNF182 RING domain (UniProt Q8N6D2); chain AESQASDELECKICYNRYNLKQRKPKVLECCHRVCAKCLYKIIDFGDSPQGVIVCPFCRFETCLPDDEV
B8: ZMYND11 RING domain (UniProt Q15326); chain DEIDWETENHDWYCFECHLPGEVLICDLCFRVYHSKCLSDEFRLRDSSSPWQCPVCRSIKKKNTNKQEM
B1 (BFAR RING domain): 0
ASPKIFQKTKCSICNSALELPSVHFLCGHSFHQHCFESYSESDADCPTCLPENRKVMDMI (VPS11 RING domain (UniProt Q9H270)): 0
B2 (RNF103 RING domain): 0
B3 (MKRN3 RING domain): 0
B4 (MARCHF1 RING domain): 0
B5 (HLTF RING domain): 0
LEALSSDFLACKICLEQLRAPKTLPCLHTYCQDCLAQLADGGRVRCPECRETVPVPPEGV (TRIM56 RING domain (UniProt Q9BRZ2)): 0
B6 (RNF186 RING domain): 0
B7 (RNF182 RING domain): 0
LVKDFNPYITCYICKGYLIKPTTVTECLHTFCKTCIVQHFEDSNDCPRCGNQVHETNPLE (PCGF5 RING domain (UniProt Q86SE9)): 0
B8 (ZMYND11 RING domain): 0

Study 3 — technique: DHFR PCA, deep sequencing; medium: yeast; with: (+)-ABA 0.032 µM; reference: wild-type fitted maximum; reading: higher = stronger binding; measurement: relative binding score
Target: ABI1, truncated, D143A, DHFR fusion (Arabidopsis thaliana)
Notes: methotrexate growth selection, single substitutions
Starting sequence: PYL1, truncated, DHFR fusion (Arabidopsis thaliana); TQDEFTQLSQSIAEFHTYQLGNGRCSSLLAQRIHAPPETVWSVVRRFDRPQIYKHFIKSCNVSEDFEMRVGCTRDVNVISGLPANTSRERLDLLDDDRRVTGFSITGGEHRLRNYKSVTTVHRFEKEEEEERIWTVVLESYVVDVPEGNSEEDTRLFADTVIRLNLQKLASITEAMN; partner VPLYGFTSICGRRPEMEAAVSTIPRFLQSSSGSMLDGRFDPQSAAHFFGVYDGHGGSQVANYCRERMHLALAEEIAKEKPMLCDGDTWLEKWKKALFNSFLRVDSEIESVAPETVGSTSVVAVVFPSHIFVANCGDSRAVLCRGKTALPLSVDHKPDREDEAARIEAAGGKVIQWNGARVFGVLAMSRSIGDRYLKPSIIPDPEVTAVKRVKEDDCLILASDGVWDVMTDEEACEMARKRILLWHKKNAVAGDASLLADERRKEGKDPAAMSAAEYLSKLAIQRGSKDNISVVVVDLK
T154A: 3.41%
V136R: -6.3%
V44S: -3.37%
S140I: -7.41%
G81Y: 1.89%
I79Y: 30.4%
V161W: 68.8%
H55W: 44.5%
S171Y: 10.4%
D65Q: 2.71%
V70P: 29.4%
A175Q: 21.6%
R99V: -4.42%
R98W: 5.75%
N165T: 7.49%
I162C: 9.51%

Study 4 — target: CCND1, cyclin fold, Cln2 fusion (human); technique: yeast growth competition, sequencing; medium: yeast; notes: weak parent motif; reference: not given; reading: higher = stronger binding; measurement: normalised enrichment score
Starting sequence: BRCA2 docking peptide (human); PSIKRNLLNEFDR
I3A: 1.75
K4D: 0.258
I3H: 0.113
N9T: 0.482
D12P: 0.47
L7G: -0.4
F11C: -0.668
L8R: -0.392
F11R: 0.167
L8W: -0.304
R13N: 1.17
S2I: 0.0995
E10I: 0.795
F11H: -0.336
L8T: 0.454
K4F: 0.165
N6V: 0.0296
R5Q: 0.222
L7A: 0.171
I3R: -0.222
N9A: 1.64
P1Y: 1.21
N9Y: 0.946
